Experimental data of several laboratories.
Each line is one published result; not all experiments were run side by side. Several values in a cell are separate wells, animals, samples, runs or records. ± gives the spread as reported.

Compound	assay	test system	conditions	how to read	quantity	result
COC1OC(C)C(OC2OC(C)C(O)C(OS(=O)(=O)O)C2OS(=O)(=O)O)C(OS(=O)(=O)O)C1OS(=O)(=O)O (stereo not shown)		human plasma	128 µg/mL		prothrombin time	15.5 ± 0.7 s
CC(CCC(=O)NCc1ccc(C(=O)NO)cc1)C1CCC2C3C(O)CC4CC(O)CCC4(C)C3CCC12C (stereo not shown)	measured: TUDCA	PCK rat (Pkhd1 mutant), liver	oral gavage, dose not given, 5 months	reference: total bile acids	relative abundance	8.84%
CN(C)c1ncnc2c1ncn2[C@@H]1O[C@H](CCl)[C@@H](NC(=O)[C@H](CSC23CC4CC(CC(C4)C2)C3)NC(=O)OC(C)(C)C)[C@H]1O	protein synthesis, measured: GFP	human cell-free translation	25 µM		inhibition	22.1%
CC(C)C[C@H](NC(=O)[C@H](CC(=O)O)NC(=O)CNC(=O)[C@@H](N)CCCNC(=N)N)C(=O)N[C@@H](C)C(=O)N[C@H](C(=O)N[C@@H](CC(C)C)C(=O)N[C@@H](CCCNC(=N)N)C(=O)N[C@@H](CCC(N)=O)C(=O)N[C@@H](CC(C)C)C(=O)N[C@@H](C)C(=O)N[C@@H](CCC(N)=O)C(=O)N[C@@H](CCC(=O)O)C(=O)N[C@@H](CC(=O)O)C(=O)NCC(=O)N[C@H](C(=O)N[C@H](C(=O)NCC(=O)N[C@H](C(=O)N[C@@H](CCCNC(=N)N)C(=O)NCCOCCOCCOCCOCCOCCOCCOCCOCCOCCOCCOCCOCCC(=O)N[C@@H](CS)C(N)=O)C(C)C)C(C)C)C(C)C)[C@@H](C)O	ex vivo NIR imaging	NOD/SCID mice, xenograft, H460 xenograft	intravenous, 30 µg, 24 h	reference: lung	fluorescence signal ratio	2.17 and 8.98 and 0.87
COC1OC(C)C(OS(=O)(=O)O)C(OC2OC(C)C(OS(=O)(=O)O)C(OC3OC(C)C(OS(=O)(=O)O)C(OC4OC(C)C(OS(=O)(=O)O)C(OS(=O)(=O)O)C4OS(=O)(=O)O)C3OS(=O)(=O)O)C2OS(=O)(=O)O)C1OS(=O)(=O)O (stereo not shown)		human plasma	128 µg/mL	reference: control	prothrombin time prolongation	0.99 fold
CN1CCCNC(=O)c2cccc(c2)C(=O)NCCCN(C)CCCNc2cccc3c2C(=O)c2cccc(c2C3=O)NCCC1		KSN/Slc nude mice, SAS xenograft	dose not given, day 10, 240 h		tumour volume	423 mm3 and 270 mm3 and 316 mm3 and 276 mm3
CC(=O)[O-].O.O.O.O.[Co+2].[O-]c1ccc(Br)cc1C=NCCN1CCOCC1	hydroxyl radical scavenging		200 µM		inhibition	45.7%
COC1CN([C@H]2CC[C@H]([C@@]3(C)Oc4c(Cl)cc(C(=O)NCc5c(SC)cc(C)[nH]c5=O)c(C)c4O3)CC2)C1	RNA-seq, measured: GABARAPL1	human, whole blood	dose not given, 24 h	reference: pretreatment baseline	log2 fold change	1.42
COc1cc2c(NC3CCN(C(C)C)CC3)cc(N3CCOCC3)nc2cc1OCCCN1CCCC1	TMT proteomics, measured: TPI1	5xFAD mice, hippocampus	dose not given	reference: untreated 5xFAD mice	log2 fold change	0.0411
CN1CCC[C@]1(C)/C=C/S(=O)(=O)NC(=O)Nc1c2c(cc3c1CCC3)CCC2		human, whole blood ex vivo	50 mg twice daily, day 14, 12 h, multiple ascending dose, together with: LPS and ATP		IL-18 inhibition	89.7%
COc1ccc(NC(=O)c2ccc3[nH]c(-c4ccc(N(C)C)cc4)nc3c2)cn1		Lewis lung carcinoma, mice, syngeneic graft, subcutaneous	intraperitoneal, 50 mg/kg daily, day 3		tumour volume	47 mm3 and 91.6 mm3 and 81.7 mm3 and 125 mm3 and 202 mm3
COC1OC(C)C(OC2OC(C)C(OS(=O)(=O)O)C(OC3OC(C)C(OC4OC(C)C(OS(=O)(=O)O)C(OC5OC(C)C(OC6OC(C)C(OS(=O)(=O)O)C(OC7OC(C)C(OC8OC(C)C(OS(=O)(=O)O)C(OC9OC(C)C(OC%10OC(C)C(OS(=O)(=O)O)C(OC%11OC(C)C(OC%12OC(C)C(OS(=O)(=O)O)C(OS(=O)(=O)O)C%12O)C(OS(=O)(=O)O)C%11O)C%10O)C(OS(=O)(=O)O)C9O)C8O)C(OS(=O)(=O)O)C7O)C6O)C(OS(=O)(=O)O)C5O)C4O)C(OS(=O)(=O)O)C3O)C2O)C(OS(=O)(=O)O)C1O (stereo not shown)		human plasma	128 µg/mL	reference: control	prothrombin time prolongation	0.97 fold
CC(C)(C)NCC(SS(=O)(=O)O)c1ccccc1 (stereo not shown)		Schistosoma mansoni-infected mice	600 mg/kg single, day 15, perfusion day 44		liver weight	1.76 g
CCC(CC)n1c(Cc2cccs2)nc2cc(C(=O)N[C@@H](CC(=O)O)c3ccccc3)ccc21		mouse, HFpEF model (HFD plus L-NAME)	ip, 20 mg/kg/day, 2 wk		lung wet/dry weight ratio	decreased
COC1OC(C)C(OS(=O)(=O)O)C(OC2OC(C)C(OS(=O)(=O)O)C(OS(=O)(=O)O)C2O)C1O (stereo not shown)		human plasma	128 µg/mL		prothrombin time	14.4 ± 0.4 s
Oc1cc2c(cc1O)C(c1ccccc1)NCC2 (stereo not shown)	ABTS scavenging		10 min, dark		IC50	7.06 µM
NC[C@@H](C(=O)Nc1ccc(-c2cn[nH]c2)cc1)c1ccccc1	tonometry	NZW rabbit, magnetic bead-induced ocular hypertension	ocular, 0.1%, 28 h		IOP	29 mmHg
COC1OC(C)C(O)C(OC2OC(C)C(O)C(OC3OC(C)C(O)C(OS(=O)(=O)O)C3OS(=O)(=O)O)C2OS(=O)(=O)O)C1OS(=O)(=O)O (stereo not shown)		human plasma	128 µg/mL	reference: control	prothrombin time prolongation	1 fold
CCN(C(=O)c1cc(F)ccc1Oc1nncnc1N1CCC2(C1)CN([C@H](CCCN(C)CCOC)C(C)C)C2)C(C)C		OCI-AML-3, mouse, disseminated AML model	30 mg/kg		increase in life span	96%
COC1OC(C)C(OS(=O)(=O)O)C(OC2OC(C)C(OS(=O)(=O)O)C(OC3OC(C)C(OS(=O)(=O)O)C(OC4OC(C)C(OS(=O)(=O)O)C(OC5OC(C)C(OS(=O)(=O)O)C(OC6OC(C)C(OS(=O)(=O)O)C(OS(=O)(=O)O)C6O)C5O)C4O)C3O)C2O)C1O (stereo not shown)		human plasma	128 µg/mL	reference: control	prothrombin time prolongation	1 fold
O=C(NS(=O)(=O)c1cccs1)c1cc2ccccc2n1Cc1ccc(Br)c2ccccc12		mouse, acute hyperuricemia model	dose not given		serum uric acid	296 µM and 214 µM and 352 µM and 178 µM
COC1OC(C)C(OC2OC(C)C(O)C(OC3OC(C)C(OC4OC(C)C(O)C(OS(=O)(=O)O)C4OS(=O)(=O)O)C(OS(=O)(=O)O)C3OS(=O)(=O)O)C2OS(=O)(=O)O)C(OS(=O)(=O)O)C1OS(=O)(=O)O (stereo not shown)		human plasma	128 µg/mL		prothrombin time	15.6 ± 0.9 s
CC(C)N1C/C(=C\c2cc(Cl)c(O)c(Cl)c2)C(=O)/C(=C/c2cc(Cl)c(O)c(Cl)c2)C1	ABTS scavenging		20 min		IC50	57.8 µg/mL
COC1OC(C)C(OC2OC(C)C(OS(=O)(=O)O)C(OC3OC(C)C(OS(=O)(=O)O)C(OS(=O)(=O)O)C3OS(=O)(=O)O)C2OS(=O)(=O)O)C(OS(=O)(=O)O)C1OS(=O)(=O)O (stereo not shown)		human plasma	128 µg/mL	reference: control	prothrombin time prolongation	1.01 fold
S=C(S)OC1CC2CC1C1CCCC21 (stereo not shown)	LC-MS/MS, measured: extracellular Met-enkephalin	mouse striatal brain slices	500 µM, 20 min, together with: 50 mM KCl		Met-enkephalin concentration	4420 pM and 4170 pM and 3560 pM and 8510 pM and 3450 pM and 972 pM and 2250 pM and 90 pM

A few entries again:
Compound	assay	test system	conditions	how to read	quantity	result
COC1CN([C@H]2CC[C@H]([C@@]3(C)Oc4c(Cl)cc(C(=O)NCc5c(SC)cc(C)[nH]c5=O)c(C)c4O3)CC2)C1	RNA-seq, measured: GABARAPL1	human, whole blood	dose not given, 24 h	reference: pretreatment baseline	log2 fold change	1.42
COC1OC(C)C(OS(=O)(=O)O)C(OC2OC(C)C(OS(=O)(=O)O)C(OC3OC(C)C(OS(=O)(=O)O)C(OC4OC(C)C(OS(=O)(=O)O)C(OS(=O)(=O)O)C4OS(=O)(=O)O)C3OS(=O)(=O)O)C2OS(=O)(=O)O)C1OS(=O)(=O)O (stereo not shown)		human plasma	128 µg/mL	reference: control	prothrombin time prolongation	0.99 fold
